Measurements from different studies.
Lines come from different studies, so protocols differ.
Target: Ephrin type-A receptor 1 (EPHA1, Homo sapiens, UniProt P21709)
Sequence (P21709 26-976, as in one of the studies): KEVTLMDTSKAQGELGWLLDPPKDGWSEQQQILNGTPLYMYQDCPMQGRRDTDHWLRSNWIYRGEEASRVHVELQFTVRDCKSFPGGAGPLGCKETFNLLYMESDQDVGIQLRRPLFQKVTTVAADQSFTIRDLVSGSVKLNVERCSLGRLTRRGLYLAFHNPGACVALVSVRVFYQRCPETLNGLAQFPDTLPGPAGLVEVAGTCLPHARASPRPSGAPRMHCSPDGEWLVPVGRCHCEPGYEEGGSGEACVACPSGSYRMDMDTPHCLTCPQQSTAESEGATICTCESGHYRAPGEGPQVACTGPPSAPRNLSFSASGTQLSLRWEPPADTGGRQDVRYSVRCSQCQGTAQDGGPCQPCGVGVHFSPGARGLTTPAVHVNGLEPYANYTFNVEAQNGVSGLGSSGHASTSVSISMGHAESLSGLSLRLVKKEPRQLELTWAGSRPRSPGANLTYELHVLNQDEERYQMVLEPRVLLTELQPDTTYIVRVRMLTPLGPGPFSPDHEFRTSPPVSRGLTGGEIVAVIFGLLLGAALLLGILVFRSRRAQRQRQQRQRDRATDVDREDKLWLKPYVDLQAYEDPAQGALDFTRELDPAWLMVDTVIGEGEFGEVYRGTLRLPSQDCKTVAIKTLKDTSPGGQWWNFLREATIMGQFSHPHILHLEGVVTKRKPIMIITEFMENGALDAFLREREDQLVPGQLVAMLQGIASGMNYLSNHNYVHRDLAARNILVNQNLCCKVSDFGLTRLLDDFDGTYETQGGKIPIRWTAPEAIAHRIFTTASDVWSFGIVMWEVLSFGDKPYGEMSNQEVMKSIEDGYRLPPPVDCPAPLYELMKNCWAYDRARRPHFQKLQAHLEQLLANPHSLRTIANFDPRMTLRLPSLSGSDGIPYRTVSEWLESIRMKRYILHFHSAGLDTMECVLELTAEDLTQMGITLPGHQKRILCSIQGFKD

For `CCN1CCN(Cc2ccc(C(=O)Nc3ccc(C)c(NCc4cnc5[nH]ccc5c4OC)c3)cc2C(F)(F)F)CC1`, the remaining binding was 72% (binding, competition with immobilised ligand; 1 µM).
For `NC(=O)C[C@H]1CCc2sc3ncnc(O[C@H]4CC[C@H](N5CCOCC5)CC4)c3c21`, the inhibition was 9% (enzyme activity, inhibitor; 10 µM).
`C=CC(=O)Nc1cc(-c2nn(C3CCN(CCNC(=O)[C@H](C)CCC45CC6CC(CC(C6)C4)C5)CC3)c3ncnc(N)c23)ccc1Oc1ccccc1` has an inhibition of 12.4% (inhibitor, KiNativ profiling; biochemical; 2 µM).
With `Cc1cccc(O[C@H]2CCC[C@@H](C(C)CNCc3ccncc3)C2)c1` (relative stereo) the inhibition was -6% (cell-free assay; 10 µM).
For `Cc1ccc(-c2c(/C=C(\C#N)C(=O)NC(C)C)n(CCCO)c3ncnc(N)c23)cc1`, the remaining binding was 87% (cell-free assay, competition with immobilised ligand; 1 µM).
With `C=CC(=O)N1CCCC(n2c(=O)c3ncccc3n(Cc3ccc(Oc4ccccc4)cc3)c2=O)C1` (centres unmarked) the remaining binding was 90% (cell-free assay, competition with immobilised ligand; 1 µM).
`O=C=[N][Ru-4]123([n]4c5ccc(O)cc5c5c6c(c7cc(F)c[n+]1c7c54)C(=O)NC6=O)[S+]1CC[S+]2CC[S+]3CC1` (centres unmarked) has a remaining activity of 107% (enzyme activity; 100 nM, human enzyme, added: 10 µM ATP; reference: untreated).
`C=CC(=O)N1CCc2ccc(-n3c(=O)ccc4cnc5ccc(-c6cnn(C)c6)cc5c43)cc21` has a remaining binding of 100% (KINOMEscan; 1 µM; reference: DMSO control).
For `CNC(=O)C[C@H](Cc1ccc(C#N)cc1)NC(=O)c1cc(-c2ccc(CN[C@H](C)c3ccc(C)cc3)o2)ccc1Cl`, “activity vs control” read 106% (enzyme activity, inhibitor; 1 µM).
For `Nc1ncc2c(n1)-c1c([nH]c3ccc(C4=CCOCC4)cc13)CCC2`, the remaining binding was 95% (binding, competition with immobilised ligand; 1 µM).
For `CC(C)=CC1OC(C)(C)C2C=C3C(=O)C(Cl)=CC(O)C3C3C(O)C4OC4C(=O)C132` (centres unmarked), the remaining binding was 83% (cell-free assay, competition with immobilised ligand; 10 µM).
`COc1ccc(NC(=O)Nc2ccc3c(c2)C(=O)N(C(C)CO)CC(C)C(CN(C)Cc2ccc4c(c2)OCO4)O3)cc1` (centres unmarked) has a remaining activity of 100% (kinase activity, KinaseProfiler; 0.03 µM, species human; reference: control).
For `C=CC(=O)Nc1cccc(-c2cnc3[nH]cc(C(=O)NC(C)(C)C)c3n2)c1`, the inhibition was -7% (enzyme activity, inhibitor; 0.1 µM).
With `COc1c(OCCCN2CCOCC2)ccc2c1N=C(NC(=O)c1cnc(N)nc1)N1CCN=C21` the remaining activity was 110% (kinase activity, inhibitor; 1 µM; reference: untreated control).

Excerpt of the above:
For `NC(=O)C[C@H]1CCc2sc3ncnc(O[C@H]4CC[C@H](N5CCOCC5)CC4)c3c21`, the inhibition was 9% (enzyme activity, inhibitor; 10 µM).
`C=CC(=O)Nc1cc(-c2nn(C3CCN(CCNC(=O)[C@H](C)CCC45CC6CC(CC(C6)C4)C5)CC3)c3ncnc(N)c23)ccc1Oc1ccccc1` has an inhibition of 12.4% (inhibitor, KiNativ profiling; biochemical; 2 µM).
